Experimental data gathered from unrelated publications.
Lines come from different studies, so protocols differ. ± marks the error that the study gave.
Target: Cholinesterase (BCHE, Equus caballus, UniProt P81908)
UniProt P81908, sequence (whole entry, looked up): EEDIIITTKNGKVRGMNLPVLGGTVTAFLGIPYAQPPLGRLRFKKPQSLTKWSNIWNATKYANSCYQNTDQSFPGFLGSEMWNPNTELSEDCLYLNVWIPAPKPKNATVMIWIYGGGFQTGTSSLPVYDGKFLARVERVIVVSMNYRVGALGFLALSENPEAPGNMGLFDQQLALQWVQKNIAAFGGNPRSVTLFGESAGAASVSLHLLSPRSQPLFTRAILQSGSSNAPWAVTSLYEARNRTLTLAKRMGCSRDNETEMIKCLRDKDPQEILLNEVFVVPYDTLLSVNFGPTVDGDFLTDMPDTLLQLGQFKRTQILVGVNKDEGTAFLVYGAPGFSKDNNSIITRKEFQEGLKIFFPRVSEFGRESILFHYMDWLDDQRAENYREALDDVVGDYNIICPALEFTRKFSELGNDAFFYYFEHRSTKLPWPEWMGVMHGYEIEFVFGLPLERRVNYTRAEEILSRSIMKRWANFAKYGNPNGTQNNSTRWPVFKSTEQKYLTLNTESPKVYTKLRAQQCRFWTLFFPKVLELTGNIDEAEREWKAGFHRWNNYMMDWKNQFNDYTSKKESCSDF
Mode: inhibitor

Structure (SMILES)	test	system	setting	endpoint	value
COc1ccc2c(c1OC)C(=O)c1nccc3cc4c(c-2c13)OCO4	enzyme activity, Ellman		up to 0.1 µg/mL	IC50	inactive
O=C(/C=C/c1cccc(Br)c1)c1cc2ccccc2oc1=O	enzyme activity		10 µM	remaining activity	63.2%
COC(=O)C1=CO[C@@H](OC(C)=O)[C@@H]2C(Cn3cc(CN4C(=O)c5ccccc5C4=O)nn3)=CC[C@H]12		horse serum BuChE	10000 µM	inhibition	78.64 ± 0.1%
Clc1ccc(Nc2c3c(nc4ccccc24)CCCC3)cc1	enzyme activity		50 µM	inhibition	-34.1%
COC(=O)C1=CO[C@@H](OC(C)=O)[C@@H]2C(Cn3cc(COCc4ccc(OC)cc4)nn3)=CC[C@H]12		horse serum BuChE	10000 µM	inhibition	42.91 ± 0.2%
COc1ccc(Nc2c3c(nc4ccccc24)CCC(C)C3)nc1 (stereo not drawn)	enzyme activity		100 µM	inhibition	-55.1%
O=C(/C=C/c1ccc(Cl)cc1)c1cc2ccccc2oc1=O	enzyme activity		10 µM	remaining activity	69.9%
Cc1ccc(Nc2c3c(nc4ccccc24)CCCC3)cc1	enzyme activity		100 µM	inhibition	-36.1%
COC(=O)C1=CO[C@@H](O)[C@@H]2C(Cn3cc(C4(O)CCCC4)nn3)=CC[C@H]12		horse serum BuChE	10000 µM	inhibition	27.26 ± 0.27%
COc1cc2c(cc1O)[C@@H]1Cc3ccc(OC(C)=O)c(OC)c3CN1CC2	enzyme activity, Ellman		up to 0.1 µg/mL	IC50	inactive
Clc1ccc2nc3c(c(Nc4ccc5ccccc5n4)c2c1)CCCC3	enzyme activity		100 µM	inhibition	-56%
COC(=O)C1=CO[C@@H](OC(C)=O)[C@@H]2C(Cn3cc(CCBr)nn3)=CC[C@H]12		horse serum BuChE	10000 µM	inhibition	97.34 ± 0.18%
O=C(/C=C/c1ccccc1Br)c1cc2ccccc2oc1=O	enzyme activity		10 µM	remaining activity	62.1%
c1ccc2nc(Nc3c4c(nc5ccccc35)CCCC4)ccc2c1	enzyme activity		50 µM	inhibition	105%
COC(=O)C1=CO[C@@H](O)[C@@H]2C(Cn3cc(CON4C(=O)c5ccccc5C4=O)nn3)=CC[C@H]12		horse serum BuChE	10000 µM	inhibition	42.3 ± 0.64%
O=C(/C=C/c1cccc(Cl)c1)c1cc2ccccc2oc1=O	enzyme activity		10 µM	remaining activity	55.8%
COc1ccc2c(c1OC)CN1CCc3cc(O)c(O)cc3[C@@H]1C2	enzyme activity, Ellman		up to 0.1 µg/mL	IC50	inactive
COc1ccnc(Nc2c3c(nc4ccccc24)CCCC3)c1	enzyme activity		100 µM	inhibition	110%

For quick reference, copied from above:
Structure (SMILES)	test	system	setting	endpoint	value
COC(=O)C1=CO[C@@H](OC(C)=O)[C@@H]2C(Cn3cc(CN4C(=O)c5ccccc5C4=O)nn3)=CC[C@H]12		horse serum BuChE	10000 µM	inhibition	78.64 ± 0.1%
Clc1ccc(Nc2c3c(nc4ccccc24)CCCC3)cc1	enzyme activity		50 µM	inhibition	-34.1%
